Measurements from different studies.
Parts stem from different laboratories: compare values within a part only.

Set 1 — cell line: HEK-293T; effect on: pseudovirus infection; method: FDA-approved drug library screen; organism: VSV pseudotyped with SARS-CoV-2 spike; concentration: 10 µM; time: 16 h; baseline: vehicle-treated
Structure (SMILES)	GFP-positive cells
CO/N=C(\C(=O)N[C@@H]1C(=O)N2C(C(=O)OCOC(=O)C(C)(C)C)=C(/C=C\c3scnc3C)CS[C@H]12)c1csc(N)n1	94%
CCCCc1ncc(/C=C(\Cc2cccs2)C(=O)O)n1Cc1ccc(C(=O)O)cc1	99.9%
C#CCN(C)Cc1ccccc1	92%
CCCC(=O)O[C@]1(C(=O)CO)CC[C@H]2[C@@H]3CCC4=CC(=O)CC[C@]4(C)[C@H]3[C@@H](O)C[C@@]21C	123%

Set 2 — effect on: enzyme activity; mode: inhibitor; concentration: 20 µM; notes: hit confirmation, no DTT
Target: Replicase polyprotein 1ab, main protease (rep, Severe acute respiratory syndrome coronavirus 2, UniProt P0DTD1)
Structure (SMILES)	inhibition [%]
Cc1ccc(S(=O)(=O)N[C@@H](Cc2ccccc2)C(=O)CCl)cc1	108
O=C1C(=Cc2cccnc2)C(=O)c2ccccc21	75.7
C=C1C(=O)[C@]23[C@H](O)[C@H]1CC[C@@H]2[C@@]12CO[C@]3(O)C[C@@H]1C(C)(C)CC[C@@H]2O	95.1
S=C(S)N1CCCC1	99.5
CCN(CC)C(=S)[S-].O.O.O.[Na+]	89.9

Set 3 — method: RNA Bind-n-Seq; form: RNA; medium: in vitro; concentration: not given; baseline: input RNA pool; direction: higher = stronger binding
Target: RING finger protein unkempt homolog, zinc fingers 1-6, GST-SBP tag (UNK, Homo sapiens, UniProt Q9C0B0, residues 30-357)
Notes: RNA with constant flanks, human-mouse chimeric sites, ends assumed
All sequences stand within: GGGAGUUCUACAGUCCGACGAUC … CAACAGAGGAUUGAGCAUCA
Target sequence (chain): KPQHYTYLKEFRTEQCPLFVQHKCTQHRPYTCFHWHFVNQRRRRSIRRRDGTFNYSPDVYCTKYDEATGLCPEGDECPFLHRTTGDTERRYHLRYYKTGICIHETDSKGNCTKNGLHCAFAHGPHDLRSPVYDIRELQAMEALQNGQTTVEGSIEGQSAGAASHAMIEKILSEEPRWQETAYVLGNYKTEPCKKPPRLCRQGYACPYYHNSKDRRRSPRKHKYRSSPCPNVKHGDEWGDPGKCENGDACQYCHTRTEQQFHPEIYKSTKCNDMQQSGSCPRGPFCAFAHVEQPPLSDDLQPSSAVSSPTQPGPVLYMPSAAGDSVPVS
Strand	bound/input enrichment [ratio]
AAUAGAGGAUCCACCUCCCAAAGUGCUGGGAGUAAAGGUGUGGCCACUCAAUUCUCCUUGAUGGAUAUAUAUUUUUUUUAAUAUGAAUCUUCCUGUUCGUCCAGGGAAGAAAGAUUUGUU	0.782
AGCACAACCCCAGCAAAGCUAAGAAAUCCUUGUACAAGUGAACAAAACUGCACCAGCCCAUUUAGCUACAAAAAUGUGCUCAGUCUUACUGACAGAGGAGAGUUUUUCAAUGAACUUGUU	1.15
CACACACUCUUCUGCGGGACCCUCAUCUUGCAGGCCCGGGCCUAUGUGGGACCGCACGUCCUGGCAGUGGUGACUCGCACAGGGUUCUGCACGGCAAAAGGGGGCCUGGUGAGCUCCAUC	0.117
UCUUAACUUAUUCAUUUAACUUAUUUUUAUAGCUAGAUAAAUAUUGUUAGUCUUAGAGAGUAGUUCACAUUUUUUGAAAAGCAUGCUCUCCCUGUCCAUUUGUCUUAUAACAUGACCCAG	26.6
ACUCAGAGAUUAUAUUCCCAAAGUGCUGGGAGUAAAGGUGUGGCCACCACACCUAACUUGAUGGAUAUAUAUUUUUUUUAAUAUGAAUGAACUCUUGCGUCCAGGGAAGAAAGAUUUGUU	0.47
GGCUGCUGGUGACUGUCCUGGAGUGGCUGGAGUUCCCCCGGAACCUGGGCCAGACUAAUUUUAGAAAAUGCCAAGUAGGAAGUUUGUUGAGGGUGAAGUGGUCAGAGGUCGAUGGCCUGG	4.43
CACACACUCUUCUGUGGGACCCUCAUCUUGCAGGCCCGAGCCUACGUGGGACCGCACGUCCUGGCAGUGGUGACCCGCACAGGGUUCUGCACGGCAAAAGGGGGCCUGGUGAGCUCCAUC	0.0593
UCGGAUGAGGUGCUGGGUCACUUUUCAUAUCCAGAUCCUUCCCAGUGGACAGAUGAAGAACUGGGAAUCCCUCCUGAUGACGAGGACUGACACUGUAAACUCUCUGGACGAGUAGGAGCA	0.586

Set 4 — method: protein-binding microarray; form: double-stranded DNA, one strand shown; medium: in vitro; concentration: 2200 nM top; notes: 60-bp whole probe; added: salmon DNA 0.4 mg/ml; baseline: random background probes; direction: higher = stronger binding; all sequences stand within: GCCTAGCAC … GTCTTGATTCGCTTGACGCTGCTG
Target: Interferon regulatory factor 7, full length, phosphomimetic (IRF7, Homo sapiens, UniProt Q92985, residues 1-503, S471D/S472D/S475D/S476D/S477D/S483D/S484D/S487D)
Target sequence (chain): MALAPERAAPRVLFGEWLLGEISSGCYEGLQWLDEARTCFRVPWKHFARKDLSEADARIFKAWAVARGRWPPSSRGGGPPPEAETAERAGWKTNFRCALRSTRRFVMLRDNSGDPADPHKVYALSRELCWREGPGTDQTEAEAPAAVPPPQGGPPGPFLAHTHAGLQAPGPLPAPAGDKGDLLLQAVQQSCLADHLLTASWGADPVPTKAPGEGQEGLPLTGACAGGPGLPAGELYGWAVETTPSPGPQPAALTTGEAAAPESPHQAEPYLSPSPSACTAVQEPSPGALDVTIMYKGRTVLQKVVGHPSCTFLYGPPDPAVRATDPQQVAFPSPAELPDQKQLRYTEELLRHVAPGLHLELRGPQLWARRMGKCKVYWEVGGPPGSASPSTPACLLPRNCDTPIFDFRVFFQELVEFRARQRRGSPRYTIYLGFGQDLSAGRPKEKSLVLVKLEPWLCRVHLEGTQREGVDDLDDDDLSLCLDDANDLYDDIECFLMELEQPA
Strand	fitted relative affinity [z-score]
TTAGGTTTCGGACGGGGTTAGTGCTAG	2.09
GACTGACTGGGGTTTCGGGACGTGCTA	0.991
GACGTTTTCAGTTTCGAGACGTGCTAG	6.74
GACAGTCTCGGACTGGGGACGTGCTAG	-0.469
GACCATATCGGGACTGGAGACGTGCTA	-0.362
GACGGTCTCGGTGTCGGGACGTGCTAG	-0.507
TCATGTCTGTGTTTCCTACTGTGCTAG	2.17
TAGAGTCTCAACCCCCAATAAGTGCTA	-0.137

Set 5 — mode: inhibitor; concentration: 20 µM
Target: Replicase polyprotein 1ab, nsp13 helicase (rep, Severe acute respiratory syndrome coronavirus 2, UniProt P0DTD1)
Compound	inhibition
CCNC(=O)NS(=O)(=O)c1sc(CC(C)C)cc1-c1ccc(Cn2c(-c3ccccc3)nc(OC)c2C=O)cc1	8.16%
CC1(C)C(=O)N(c2ccc(C#N)c(C(F)(F)F)c2)C(=O)N1CCCCO	-0.67%
COc1ccc(NC(=O)c2ccc(-c3ccc(-c4noc(C)n4)cc3C)cc2)cc1N1CCN(C)CC1	10.1%
C[C@H]1CCC/C=C/[C@@H]2C[C@H](O)C[C@H]2[C@H](O)/C=C/C(=O)O1	6.28%
COC(=O)Nc1nc2ccc(SC(C)C)cc2[nH]1	3.28%
CC1=CC(=O)c2ccccc2C1=O	21.6%
C=C(c1ccc(C(=O)O)cc1)c1cc2c(cc1C)C(C)(C)CCC2(C)C	3.54%
COc1c(-c2ccc3cc(NS(C)(=O)=O)ccc3c2)cc(-n2ccc(=O)[nH]c2=O)cc1C(C)(C)C	1.53%
COc1ccc(OC)c(CN(C(C)=O)c2cc(F)ccc2Oc2ccccc2)c1	4.3%
CN1CCN(c2nc3ccccc3nc2Cl)CC1	5.6%
Fc1ccc(CN2CCC(Nc3ccc(C(F)(F)F)nn3)CC2)cc1F	0%
O=C1NCCc2[nH]c(-c3ccncc3)cc21	7.01%
CCOC(CN1CCN(CC(C)C(=O)c2ccccc2)CC1)c1ccccc1 (centres unmarked)	-1.36%
N=C(N)c1ccc(N=NNc2ccc(C(=N)N)cc2)cc1	23.7%
CNC(=O)c1ccc(C)c(-n2c(C)cc(OCc3ccc(F)cc3F)c(Br)c2=O)c1	4.8%
Nc1nc2c(ncn2[C@@H]2O[C@H](CO)[C@@H](O)[C@H]2O)c(=O)[nH]1	3.65%
Cc1cc2c(cc1CC(=O)c1sccc1S(=O)(=O)Nc1onc(C)c1Cl)OCO2	5.12%
COc1cc(NC(=O)c2cccc(-n3cc(NC(=O)Nc4cccc(C)c4)cn3)c2)cc(OC)c1OC	1.85%
CC(=O)[C@H]1CC[C@H]2[C@@H]3CC[C@@H]4C[C@H](O)CC[C@]4(C)[C@H]3CC[C@]12C	6.46%
C[N+](C)(C)CC#CCN1CCCC1=O	6.83%
COC(c1ccccc1)(c1ccccc1)[C@H](Oc1nc(C)cc(C)n1)C(=O)O	4.11%
CN1CCN(C2=Cc3ccccc3Oc3ccc(Cl)cc32)CC1	6.56%
NC(=O)CN1Cc2ccccc2OC1=O	0.82%
CC[C@H](C)n1cc(C)c2c(C(=O)NCc3c(C)cc(C)[nH]c3=O)cc(-c3ccc(N4CCNCC4)nc3)cc21	6.27%
CC(=O)OCC(=O)[C@@]1(O)CC[C@H]2[C@@H]3CCC4=CC(=O)C=C[C@]4(C)[C@H]3[C@@H](O)C[C@@]21C	-1.09%
